Published values pooled from the literature.
A part holds a random share of what one study measured.

Study 1
Target: Interferon regulatory factor 7, full length, phosphomimetic (IRF7, Homo sapiens, UniProt Q92985, residues 1-503, S101K/S471D/S472D/S475D/S476D/S477D/S483D/S484D/S487D)
Technique: protein-binding microarray
Molecule type: double-stranded DNA, one strand shown
Sample: in vitro
Tested at: 250 nM
Notes: 60-bp whole probe
Added: salmon DNA 0.4 mg/ml
Reference: random background probes
Reading: higher = stronger binding
Constant ends, left off below: GCCTAGCAC … GTCTTGATTCGCTTGACGCTGCTG
Residues (chain): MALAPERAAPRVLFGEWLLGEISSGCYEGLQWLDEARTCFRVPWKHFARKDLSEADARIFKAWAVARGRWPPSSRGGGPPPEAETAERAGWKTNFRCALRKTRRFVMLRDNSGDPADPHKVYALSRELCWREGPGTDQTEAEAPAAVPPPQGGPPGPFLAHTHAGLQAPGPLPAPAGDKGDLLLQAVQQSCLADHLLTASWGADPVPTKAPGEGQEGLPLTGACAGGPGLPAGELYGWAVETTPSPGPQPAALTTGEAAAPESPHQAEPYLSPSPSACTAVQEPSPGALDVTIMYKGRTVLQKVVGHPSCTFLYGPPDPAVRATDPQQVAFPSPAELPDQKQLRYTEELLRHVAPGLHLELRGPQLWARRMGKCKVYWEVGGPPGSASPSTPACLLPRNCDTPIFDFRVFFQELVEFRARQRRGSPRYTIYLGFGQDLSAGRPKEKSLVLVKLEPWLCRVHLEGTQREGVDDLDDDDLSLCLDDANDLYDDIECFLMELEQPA
`TTAGATTCCAGTTTCGGTTAGTGCTAG` gave a log fluorescence of 10 z-score.
The log fluorescence of `GACGAATTCGGGTATCGAGACGTGCTA` is reported as 0.481 z-score.
`TCACATTTAATTATATGACTGTGCTAG` gave a log fluorescence of 0.838 z-score.
`TTAGGTTCCGGTTTCGCTTAGTGCTAG` gave a log fluorescence of 9.36 z-score.
The log fluorescence of `GACGGCTTCCTACTGCTGACGTGCTAG` is reported as -0.35 z-score.
`TTAGGACTGGACTTTCGGTTGGTGCTA` gave a log fluorescence of 0.789 z-score.

Study 2
Target: RNA binding protein fox-1 homolog 2, RRM domain, GST-SBP tag (RBFOX2, Homo sapiens, UniProt O43251-10, residues 100-194)
Technique: RNA Bind-n-Seq
Molecule type: RNA
Sample: in vitro
Tested at: 365 nM
Notes: natural RNA segment, single round, ends assumed
Reference: no-protein control
Reading: higher = stronger binding
Constant ends, left off below: GGGAGUUCUACAGUCCGACGAUC … UGGAAUUCUCGGGUGCCAA
Target sequence (chain): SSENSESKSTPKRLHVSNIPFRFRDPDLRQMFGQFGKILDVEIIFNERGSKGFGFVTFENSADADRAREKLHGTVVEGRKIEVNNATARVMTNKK
`UUUUAAGAAUAAUAUAUUGACUUACUGAACUGAAGCAUUCUGAGUUGAAAGGAGCUCCAGAGGAGUGGAGUUCUGUGUUGCUCACAUGUUAAAAUCUUGCUCACCUUCAG`: “RBNS enrichment (R)” 0.438.
`CCAAGCUGCUUGUCCUGGGCCUGCCCCUGUGUAUUCACCACCAAUAAAUCAGACCAUGAAACCAGUGUGGGUUGGGCUGGGAGAAGGGCAGUGACAUUCAAAGCCAGGGU`: “RBNS enrichment (R)” 0.393.
For `GGCAAGCCAGAACUCCAGAGCUGAGCUGGUCACAGUCACUCCUCCCCCACCACCCCUGCCCCUCCAGAGGCUGCAGUUUUCUCGCCUGUCACUUGGAACAUUAGAGCUCC`, “RBNS enrichment (R)” read 0.533.
`AGCUGCAAGGGAGACCAACUCUUUCCCAGAAUCGCUAGGCAGAGCCCAGCAAUGAGGUCCCACCACACCAGGCCACACCCCCCCACUCUUCUGGAGGUGAAGGCCCAGGG` — result for “RBNS enrichment (R)”: 0.267.
Under “RBNS enrichment (R)”, `AAGGACCUACUGCAUGCCUGUCCCCAGGGCCCCGGUGGAAGGAAGGCAGCGCCUGCUCUUCCUUAACUCAGCCCAUCAUCUGAAAAUUCAGAAGUGAACCAAGGGUUAGA` is recorded as 22.3.
`AUUAAGCCUUCCAAGUCCCCAGCCAGGACCAUAGCUCCCCUGACCCUUUCACUGCCCCAGUGGUGUAAGUGGAGGGCCAGGGACCCUGCAAUUGUACCUGCUCCUCAUCC` — result for “RBNS enrichment (R)”: 0.161.

Study 3
Target: PABPC1L2, full length, GST fusion (mouse, UniProt A0ABA7IW68)
Technique: RNAcompete
Molecule type: RNA
Sample: in vitro
Tested at: 20 nM
Notes: 7-mer, probes averaged, single round
Reference: mean of 7-mers
Reading: higher = stronger binding
Target sequence (chain): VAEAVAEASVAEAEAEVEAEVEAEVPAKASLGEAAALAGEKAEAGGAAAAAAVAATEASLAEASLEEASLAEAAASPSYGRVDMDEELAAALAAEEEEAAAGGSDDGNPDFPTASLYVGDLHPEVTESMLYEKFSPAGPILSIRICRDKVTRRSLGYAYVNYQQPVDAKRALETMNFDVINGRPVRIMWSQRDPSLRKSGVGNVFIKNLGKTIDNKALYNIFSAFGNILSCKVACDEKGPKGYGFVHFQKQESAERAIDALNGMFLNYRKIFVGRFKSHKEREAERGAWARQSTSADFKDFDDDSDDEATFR
`UGCGUGC` gave a 7-mer Z-score of -0.193.
`AAGGAUG` has a 7-mer Z-score of 0.314.
With `AGUCUAA` the 7-mer Z-score was -0.135.
For `UCGCGUA`, the 7-mer Z-score was -0.418.
For `CCAGAAC`, the 7-mer Z-score was -0.164.

Further values, each from its own experiment
The fold induction of `PhoQ, residues 284 288 289 292 302 303 SACGEM` is reported as 4.62 (PhoP, residues 12 14 15 18 19 HLGGL (Escherichia coli, UniProt P23836); Sort-seq, item: YFP reporter; E. coli; PhoQ-PhoP variant library, added: 10 µM Mg2+; reference: high Mg2+ state, higher = stronger signaling).

For quick reference, copied from above (study 2):
For `GGCAAGCCAGAACUCCAGAGCUGAGCUGGUCACAGUCACUCCUCCCCCACCACCCCUGCCCCUCCAGAGGCUGCAGUUUUCUCGCCUGUCACUUGGAACAUUAGAGCUCC`, “RBNS enrichment (R)” read 0.533.
`AUUAAGCCUUCCAAGUCCCCAGCCAGGACCAUAGCUCCCCUGACCCUUUCACUGCCCCAGUGGUGUAAGUGGAGGGCCAGGGACCCUGCAAUUGUACCUGCUCCUCAUCC` — result for “RBNS enrichment (R)”: 0.161.
`UUUUAAGAAUAAUAUAUUGACUUACUGAACUGAAGCAUUCUGAGUUGAAAGGAGCUCCAGAGGAGUGGAGUUCUGUGUUGCUCACAUGUUAAAAUCUUGCUCACCUUCAG`: “RBNS enrichment (R)” 0.438.
